Published values gathered from unrelated publications.
A part holds a random share of what one study measured.

Series 1
Target: Histone acetyltransferase KAT6A, winged helix 1, GST fusion (KAT6A, Homo sapiens, UniProt Q92794, residues 1-85)
Method: protein binding microarray
Molecule type: double-stranded DNA, one strand shown
Matrix: in vitro
Tested at: not given
Notes: 8-mer, flanks averaged, mean of 2 arrays, mostly near background
Relative to: not given
Direction: higher = stronger binding
Construct (chain): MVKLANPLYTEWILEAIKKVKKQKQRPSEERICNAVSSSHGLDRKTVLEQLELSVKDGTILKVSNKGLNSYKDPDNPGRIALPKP
Sequence | E-score
ACGGTTGC | 0.268
AAAAATCC | -0.0748
CGTTCTGC | 0.0611
CTATGCGC | 0.35
AATTCTAT | -0.236
AGGTGGGA | -0.159
GGACGCTA | 0.172
GTTTGTTA | -0.0278
AGGCCGAG | 0.0928
CAATCTAC | -0.039
ACTTTCCG | 0.0408
GATAACGA | -0.227
CCTCTTTC | -0.21
ACAATTTC | -0.186
CCCTGCGC | 0.222
AGTTGAAC | -0.155
AATTTTTC | -0.0356

Series 2
Target: Prothrombin, mature alpha-thrombin (F2, Homo sapiens, UniProt P00734)
Method: aptamer microarray, sandwich
Molecule type: DNA with 2'F-ANA
Matrix: in vitro
Tested at: 200 nM
Notes: whole 15-mer aptamer, many near background
Together with: Cy3 exosite-II aptamer, 400 nM
Direction: higher = stronger binding
Sequence: GGTTGGTGTGGTTGG
Modification | mean fluorescence intensity [a.u.]
2'F-ANA at 2 4 7 10 11 13 15 | 92.7
2'F-ANA at 3 7 9 11 12 14 15 | 642
2'F-ANA at 2 3 4 6 7 8 11 12 14 | 331
2'F-ANA at 3 4 6 8 13 15 | 444
2'F-ANA at 1 3 4 5 7 10 13 14 | 79.4
2'F-ANA at 2 5 6 7 8 9 11 15 | 60.7
2'F-ANA at 1 4 6 7 11 13 15 | 72.5
2'F-ANA at 7 10 12 14 | 120
2'F-ANA at 4 5 6 7 8 11 12 | 142
2'F-ANA at 1 5 6 7 8 10 11 12 14 15 | 49.1
2'F-ANA at 1 2 4 9 12 | 292
2'F-ANA at 2 3 4 6 7 8 9 11 12 13 15 | 504
2'F-ANA at 1 3 4 6 7 8 9 10 11 14 15 | 56.1
2'F-ANA at 1 4 5 8 9 10 11 12 15 | 49.1
2'F-ANA at 4 5 8 10 12 14 | 44.4
2'F-ANA at 1 3 5 7 10 13 14 | 73.4
2'F-ANA at 1 2 3 7 8 10 11 15 | 64.9
2'F-ANA at 2 4 5 8 9 10 11 15 | 91.1
2'F-ANA at 1 2 3 5 6 7 8 14 | 68.9

Series 3
Target: Sal-like protein 4, full length isoform A (SALL4, Homo sapiens, UniProt Q9UJQ4, residues 1-1053)
Sequence of UniProt Q9UJQ4 (whole entry, looked up): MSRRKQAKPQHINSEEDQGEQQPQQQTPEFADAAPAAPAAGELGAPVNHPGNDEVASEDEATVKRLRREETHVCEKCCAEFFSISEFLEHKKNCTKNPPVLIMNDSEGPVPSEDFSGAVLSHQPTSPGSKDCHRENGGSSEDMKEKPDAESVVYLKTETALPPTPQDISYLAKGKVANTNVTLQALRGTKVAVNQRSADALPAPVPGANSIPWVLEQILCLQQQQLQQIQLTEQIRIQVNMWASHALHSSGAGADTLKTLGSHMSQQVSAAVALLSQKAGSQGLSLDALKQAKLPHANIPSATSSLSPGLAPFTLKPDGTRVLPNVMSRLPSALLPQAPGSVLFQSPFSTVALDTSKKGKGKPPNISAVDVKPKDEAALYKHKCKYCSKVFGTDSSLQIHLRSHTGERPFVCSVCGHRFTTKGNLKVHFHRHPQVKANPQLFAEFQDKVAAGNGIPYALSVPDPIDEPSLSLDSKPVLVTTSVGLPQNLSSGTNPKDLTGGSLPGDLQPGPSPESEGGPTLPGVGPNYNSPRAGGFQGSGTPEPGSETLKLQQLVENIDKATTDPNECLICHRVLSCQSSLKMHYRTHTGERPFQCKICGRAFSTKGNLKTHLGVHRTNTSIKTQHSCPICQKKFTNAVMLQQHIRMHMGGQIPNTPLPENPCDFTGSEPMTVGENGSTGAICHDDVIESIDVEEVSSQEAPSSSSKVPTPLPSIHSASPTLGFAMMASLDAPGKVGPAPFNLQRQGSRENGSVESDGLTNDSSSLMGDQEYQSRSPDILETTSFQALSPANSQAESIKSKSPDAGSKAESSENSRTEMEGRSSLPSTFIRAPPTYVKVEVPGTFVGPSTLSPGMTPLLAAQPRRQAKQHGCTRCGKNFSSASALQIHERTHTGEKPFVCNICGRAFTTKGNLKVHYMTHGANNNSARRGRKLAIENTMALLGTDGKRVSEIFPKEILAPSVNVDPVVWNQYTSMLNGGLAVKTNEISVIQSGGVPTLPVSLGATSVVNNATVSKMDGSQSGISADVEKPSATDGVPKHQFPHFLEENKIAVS
Method: universal PBM
Molecule type: double-stranded DNA, one strand shown
Matrix: in vitro
Tested at: 600 nM
Notes: 8-mer, flanks averaged, mean of replicates
Direction: higher = stronger binding
Sequence | E-score
CCGGTCCC | -0.362
ATGCGGCG | -0.133
ACGGTACT | -0.033
GGTGGACA | -0.128
GTTGGCTA | -0.0674
ACGACCGC | -0.303
AATAATTA | 0.449
AGGAATGC | -0.0402
ATGCCTCG | -0.0328
CCACAAGG | -0.241
GACTTCAC | -0.259
ACGTCCAG | -0.2
GCGCAGAA | -0.156
TAATGACA | 0.216
GATGGTAC | -0.0885
CAGTCGAC | -0.0514
CCGAGAGG | -0.29
AGAGACTG | -0.268
CAACTAAA | 0.166
CATGCTGA | -0.0652
GCGGGACA | -0.213
GCACCGAA | -0.0793
CATCGAAA | 0.106

Series 4
Target: RNA binding protein fox-1 homolog 2, RRM domain, GST-SBP tag (RBFOX2, Homo sapiens, UniProt O43251-10, residues 100-194)
Method: RNA Bind-n-Seq
Molecule type: RNA
Matrix: in vitro
Tested at: 365 nM
Notes: natural RNA segment, single round, ends assumed
Relative to: no-protein control
Direction: higher = stronger binding
Shared flanks, not repeated: GGGAGUUCUACAGUCCGACGAUC … UGGAAUUCUCGGGUGCCAA
Construct (chain): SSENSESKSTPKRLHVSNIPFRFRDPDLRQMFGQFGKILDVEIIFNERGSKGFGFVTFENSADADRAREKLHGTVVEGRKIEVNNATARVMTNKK
Sequence | RBNS enrichment (R)
AUGAUUUAUGGGAAUGAAGCAAGUACUGAAAUCAAAUUAAAUACUCCCUGGGUCCUGGGUCAGUUUGACCCUAGCCCUGGGGUGAGGCAAGCCCCCUCCUAUGAGGAUGA | 0.419
UGCAUGAUCCACCUGCUGCACGAUCCUAUGAGGGCUUCCUGUGGCACACAGCCCUCUGGGUGCUUGGGAACUAGCUUCAGGCACAGCCUGAUUCUGGUGAUCCAGUGAUC | 2.88
GUGUGGAGUCAGUGCUGACAUCACUGGCUUGUGCUGUCUGUCACAUGUGUUUGUCUCUGCUGCUUGACCUCAUGGGAUGUACCCUCCAGUUCAACUGCCCAAAACAGACA | 0.238
GCUGAAGGCUGGUUGUGGAUCCUUGUUCCUCUCCUGACCCCAUCUGGCUGCUGCCCCGUCUCCCACCCCUGUCCCCGGGGCUCGCUGGCCCUGCACUCCGCCUUAGUCCU | 1.73
AGCCACGCUGCUCUUCCGAGACUUCCAUUCCUUUCUGAUUGGCACACGUGCAGCUCAUGACAAUCUGUAGGAUAACAAUCAGUGUGGAUUUCCACUCUUUUCAGUCCUUC | 0.166
AGGUACAGUCACCACCACCCUGGAACCAAGGGUCUCACACCAUUGCUCAGUGCUGAACUAUAACUGCCACACGUCCCCUCAUAUCAAAUGGAGCAGUGGCAAUCUCCCUG | 0.412
AAAAAAACAAAACAAAAACAAACCUUUUUUGUAAGUUCAUCCAUUUUCUACAGAAGUCCAGCCCAGAGUCCCCACUUUGCUAGUGCUGCCUGGCUGCCACCGCCUAACGC | 0.554
GAGGGACAUGCCUACUAGGAGUUUUUAAUGAUGUGGUAUUUAAAGUAUUGUCUCUUAGUUAAGUAUGAUUUAUUAACCCAGUGGAGCACUGUCUGCUUUUAAAUUGUCAC | 0.648
UUUCUUGCUUUUUGUUUUGUUUUGUUUUAUUAUUUUCAUAUCACCUCCAUCCCAUAAAGUUGUACUGUGAACUGGAAGAUGGUGGAAUGUUUUGGAAUUUGAUAGACUUU | 2.76
CAUCACCUUUGCCCUGCUCUGGGGGACAGACAUGACAGUAAAAGUGUCCCGGGACUCUUUCCGUUCAUUGUUUGCUUUUUUGGCAACUAGGAGGUUGGCACUAAGACCCA | 0.239
UUCAUUUGUCAGAUCCAGUUUUCCUACAUACAUCUUUGUUCACAGUAUGCUAAGGGGAAAAAAAAAUUUAGGAUAGAAAACUUGAGCAUUGUAUAUGUUUCCUGGAUGUC | 0.824
CUUUUAUUUAACAUAUAUAUUUAUUUUAACUCUCUUGGAAGAUGUGUGAGGGAAAAAAAUAACUCUCAUUUGAUCAGACACUAAAUAUUUGGGGUAGGGAUUUCUGUCUU | 0.717

A few entries again (series 3):
Sequence | E-score
CAGTCGAC | -0.0514
CCGGTCCC | -0.362
GTTGGCTA | -0.0674
ATGCCTCG | -0.0328
AGAGACTG | -0.268
GATGGTAC | -0.0885
GACTTCAC | -0.259
GCGCAGAA | -0.156
ACGACCGC | -0.303
CCGAGAGG | -0.29
ACGGTACT | -0.033
GCACCGAA | -0.0793
